Results pooled from the literature.
“And” joins repeats or separate records; there may be more than shown. Numbers after ± are the reported error.
ppa: Inorganic pyrophosphatase (ppa, Escherichia coli, UniProt P0A7A9)
UniProt P0A7A9, sequence (whole entry, looked up): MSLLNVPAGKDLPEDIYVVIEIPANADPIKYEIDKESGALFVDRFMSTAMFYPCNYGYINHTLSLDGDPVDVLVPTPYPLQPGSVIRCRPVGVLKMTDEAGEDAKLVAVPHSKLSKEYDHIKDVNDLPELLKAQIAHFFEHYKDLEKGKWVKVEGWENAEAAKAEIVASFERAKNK
TDP1: Tyrosyl-DNA phosphodiesterase 1 (TDP1, Homo sapiens, UniProt Q9NUW8)
UniProt Q9NUW8, sequence (whole entry, looked up): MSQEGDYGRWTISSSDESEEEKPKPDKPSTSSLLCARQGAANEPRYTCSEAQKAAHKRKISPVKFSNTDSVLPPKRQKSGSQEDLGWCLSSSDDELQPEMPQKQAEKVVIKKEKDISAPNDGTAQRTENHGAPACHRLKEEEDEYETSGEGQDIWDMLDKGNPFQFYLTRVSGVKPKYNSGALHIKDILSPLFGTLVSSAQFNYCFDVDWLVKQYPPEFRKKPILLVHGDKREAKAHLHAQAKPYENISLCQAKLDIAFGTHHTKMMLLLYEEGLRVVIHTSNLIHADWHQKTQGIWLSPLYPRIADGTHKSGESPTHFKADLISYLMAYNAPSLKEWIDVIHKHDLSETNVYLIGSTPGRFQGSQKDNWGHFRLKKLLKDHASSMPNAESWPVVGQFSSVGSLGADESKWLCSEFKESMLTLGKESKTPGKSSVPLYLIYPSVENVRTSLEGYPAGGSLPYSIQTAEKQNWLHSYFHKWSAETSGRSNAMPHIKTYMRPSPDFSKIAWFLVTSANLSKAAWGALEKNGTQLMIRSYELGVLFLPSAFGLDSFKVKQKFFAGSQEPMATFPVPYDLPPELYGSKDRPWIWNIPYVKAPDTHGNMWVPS

| SMILES | tested on | assay | setting | scale | measurement | value |
| --- | --- | --- | --- | --- | --- | --- |
| CC(C)Cc1ccc(C(C)C(=O)[Se]CC(=O)Nc2cccc(C(F)(F)F)c2)cc1 (centres unmarked) | NCI60 melanoma subpanel | total growth inhibition, inhibitor | five-dose |  | mean TGI | 4960 nM |
| N#Cc1cccc(/C=C/C(=O)c2ccc(O)cc2)c1 | U-87 MG | item: ATOH8 | concentration not given | relative to: untreated | fold change | 0.054 |
| C=CC(=O)N1[C@@H](c2ccc3c(c2)OCO3)c2[nH]c3ccccc3c2C[C@H]1C(=O)NC1CC1 | rat DRG neurons |  | 1.111 µM, 48 h, added: vincristine 40 nM |  | neuron degeneration | 74.7% and 79.1% |
| CNS(=O)(=O)Nc1nccc(Cc2c(C)c3ccc(Oc4ncccc4F)cc3oc2=O)c1F | MP38 | cell viability, CellTiter-Glo | 7 days |  | IC50 | 2.69 nM |
| C[N+]1(Cc2ccccc2)CCN(CCCN2c3ccccc3Sc3ccc(Cl)cc32)CC1 | ppa | inhibitor, counter-screen, coupling enzyme alone |  |  | IC50 | 94200 nM |
| COc1ccc2c(c1)OC1=C(C(=O)CCC1)C2c1c[nH]c2ccccc12 (centres unmarked) | 3T3-L1 preadipocytes | adipogenesis, Oil Red O staining | IC20, 14 days, single replicate |  | lipid content | 0.496 OD492 and 0.495 OD492 and 0.485 OD492 |
| CN1CCC(N[C@@H]2CCc3[nH]c4c(C(N)=O)ccc(-c5ccccc5Cl)c4c3C2)CC1 | DOHH-2 | cell growth or viability |  |  | IC50 | 23.1 nM |
| CC(C)c1ccc(N(C)c2ccc3c(c2)OCC[C@H]3CNc2cnccc2C(=O)O)cc1 | COLO-679 | cell viability, CellTiter-Glo | 7 days |  | IC50 | 2040 nM |
| C=C(NC(=O)c1csc(-c2ccc(NC(=O)CCCCCBr)cc2)n1)C(=O)NC(=C)C(=O)OC | H-MESO-1 | cell viability, crystal violet | 6 h exposure, 48 h total |  | EC50 | 960 nM |
| CO[C@@H]1[C@@H](OC(N)=O)[C@@H](O)[C@H](Oc2ccc3c(O)c(NC(=O)c4ccc(O)c(CC=C(C)C)c4)c(=O)oc3c2C)OC1(C)C | HCT-116 BRCA2 wild-type |  | 150 µM, mean of replicates A, B | relative to: untreated | colony survival | 86.9% |
| CC(=O)NCCCN(C)CCCNc1cccc2c1C(=O)c1cccc(NCCCN(C)CCCNC(C)=O)c1C2=O | SAS | RNA-Seq, item: FNDC8 mRNA | 1 µM, 24 h | relative to: untreated cells | log2 fold change | -2.5 |
| COc1cc(N(C)CCN(C)C)c(NC(=O)/C=C/c2ccc(C(C)(C)C)cc2)cc1Nc1nccc(-c2cn(C)c3ccccc23)n1 | NCI-H1975 | cell growth or viability, MTT | 0.5 µM, 72 h |  | inhibition | 67.3% |
| Cn1ncc2cc(-c3cncc(Cl)c3N3CCC4(CCNC4=O)CC3)ccc21 | LS174T | gene expression, microarray, item: MYL9 mRNA | concentration not given, 24 h | relative to: untreated cells | log2 fold change | 1.12 |
| COc1cc(N(C)CCN(C)C)c(NC(=O)/C=C/c2cccc(C(F)(F)F)c2)cc1Nc1nccc(-c2cn(C)c3ccccc23)n1 | NCI-H1975 | cell growth or viability, MTT | 0.5 µM, 72 h |  | inhibition | 69.8% |
| O=[C]=[Mn-2]12(=[C]=O)(=[C]=O)[O]c3cc4c(cc3=[N+]1CCc1ccccc1)[O][Mn-2](=[C]=O)(=[C]=O)(=[C]=O)([N+]=4CCc1ccccc1)[n+]1ccc(cc1)C(=O)OCCOC(=O)c1cc[n+]2cc1 | HCT-15 | MTT | 50 µM, 48 h, photolysed compound |  | viability reduction | 92% |
| CCCCCCCCCCCCCCCCCCOc1ccccc1CCOP(=O)([O-])OCC[N+](C)(C)C | HOP-92 | cell growth or viability, SRB | 10 µM |  | inhibition | 43% |
| Cc1cc(Cl)cc(-c2ccnc3cc(CN4C(=O)C5C(C4=O)C5(C)C)sc23)c1C[C@@H]1CNCCO1 (some centres unmarked) | CHP-212 parental (wild-type USP7) | PI flow cytometry | 0.3 µM, 24 h |  | cells in G1 phase | 70.4% and 68.6% and 64.1% |
| Cc1ncsc1-c1ccc(C(C)NC(=O)C2CC(O)CN2C(=O)C(NC(=O)CCCCCCCCCCN2CCCC(Nc3ncc(Cl)c(Nc4ccccc4S(=O)(=O)C(C)C)n3)C2)C(C)(C)C)cc1 (centres unmarked) | 22Rv1 | RNA-seq, item: SLX4 mRNA | concentration not given | relative to: DMSO | log2 fold change | -2 |
| Cc1ccc(-n2cc(CSc3nc4ccccc4n3Cc3cn(-c4ccc(C)cc4)nn3)nn2)cc1 | Caco-2 | MTT | 15.6 ppm |  | viability | 41.1% |
| CCN(CC)CC(=O)Nc1cccc(-n2cc(-c3ccc4ccc(-c5cn(-c6cccc(NC(=O)CN(CC)CC)c6)nn5)cc4c3)nn2)c1 | RCC4 | PCR angiogenesis array, item: MDK | 5 x IC50, 4 h, normoxia | relative to: untreated | fold regulation | -1.34 |
| O=C(C[Se]C(=O)c1cc2ccccc2o1)Nc1cccc(C(F)(F)F)c1 | NCI60 melanoma subpanel | cell growth | 10 µM, 48 h, one-dose |  | mean growth percent | -73.9% |
| COc1cc(N(C)CCN(C)C)c(NC(=O)/C=C/c2ccc(OC)c3ccccc23)cc1Nc1nccc(-c2cn(C)c3ccccc23)n1 | NCI-H1975 | cell growth or viability, MTT | 0.5 µM, 72 h |  | inhibition | 60.2% |
| N#Cc1ccnc(N2Cc3cn(Cc4ccc(F)cc4)nc3C2)n1 | HEK293 expressing GluA1 and GluA2 | glutamate excitotoxic cell death, CellTox Green | added: glutamate |  | IC50 | 72 nM |
| CN1CCCNC(=O)c2cccc(c2)C(=O)NCCCN(C)CCCNc2cccc3c2C(=O)c2cccc(c2C3=O)NCCC1 | SAS | RNA-Seq, item: SRSF4 mRNA | 1 µM, 6 h | relative to: untreated cells | log2 fold change | -1.4 |

| SMILES | tested on | assay | setting | scale | measurement | value |
| --- | --- | --- | --- | --- | --- | --- |
| O=C(C[Se]C(=O)c1ccccc1Nc1ccccc1)Nc1cccc(C(F)(F)F)c1 | NCI60 leukaemia subpanel | NCI60 five-dose screen |  |  | mean TGI | 4010 nM |
| COc1ccc(NC(=O)Nc2cc(C(C)(C)C)on2)cc1OC | ppa | inhibitor, counter-screen, coupling enzyme alone |  |  | IC50 | > 30000 nM |
| CN(C)C(=O)c1cccc(N2Cc3cn(Cc4ccc(Cl)cc4)nc3C2)c1 | HEK293 expressing GluA1 and GluA2 | glutamate excitotoxic cell death, CellTox Green | added: glutamate |  | IC50 | 19 nM |
| COc1ccccc1-c1ccncc1C(=O)Nc1nnc(OCc2ccc(Cl)cc2)s1 | DLD-1 BRCA2-/- |  | 0.125 µM, mean of replicates |  | colony count | 46 and 39.5 and 38 |
| C=CC(=O)Nc1cc(Nc2nccc(-c3c(-c4ccc(-c5ccc(CC)cc5)cc4)n(C)c4ccccc34)n2)c(OC)cc1N(C)CCN(C)C | NCI-H1975 | cell growth or viability, MTT | 0.5 µM, 72 h |  | inhibition | 60.3% |
| COc1ccc(Br)c2c1OC1=C(C(=O)CCC1)C2c1c[nH]c2ccccc12 (centres unmarked) | 3T3-L1 preadipocytes | adipogenesis, Oil Red O staining | IC20, 14 days, single replicate |  | lipid content | 0.734 OD492 |
| COc1cc(N(C)CCN(C)C)c(NC(=O)/C=C/c2ccc3c(c2)OCCO3)cc1Nc1nccc(-c2cn(C)c3ccccc23)n1 | NCI-H1975 | cell growth or viability, MTT | 0.5 µM, 72 h |  | inhibition | 73.8% |
| CC(C=NOCc1ccc2nc(-c3ccccc3)c(Nc3ccc(C(=O)O)cc3)n2c1)=Cc1cccc([N+](=O)[O-])c1O | TDP1 | enzyme activity, inhibitor | 100 µM, unpurified compound |  | inhibition | 76.7% |
| CC(=O)Oc1ccccc1C(=O)[Se]CC(=O)Nc1cccc(C(F)(F)F)c1 | NCI60 CNS subpanel | cell growth | 10 µM, 48 h, one-dose |  | mean growth percent | -55.1% |
| O=C(CCCCCOc1ccc2ccccc2c1)N[C@@H](CO)C[C@@H](O)c1ccc(-c2ccccc2)cc1 | HeLa | CERT activity, HPLC-MS/MS lipidomics, item: ceramide 16 | 1 µM, 24 h, not cell-number normalised |  | ceramide level | 25500 pmol/sample and 26100 pmol/sample and 28300 pmol/sample |
| CCc1n(CC(=O)O[C@@H]2C[C@H](C)CC[C@H]2C(C)C)c2ccccc2[n+]1C | HTS cells (mouse) | gene microarray, item: COX6A2 | 1 µM, 12 h, unit not given | relative to: untreated | mRNA level | 3.8 |
| COC(=O)c1cc(NC2=NC(=O)C(=Cc3ccc(N(C)C)cc3)S2)ccc1OC(C)=O | MCF7 | GC-MS, item: L-5-Oxoproline | 1 µM | relative to: DMSO | metabolite level | 0.32 fold change |
| CN(C)C(=O)c1ccnc(N2Cc3cn(Cc4ccc(C#N)cc4)nc3C2)n1 | HEK293 expressing GluA1 and GluA2 | glutamate excitotoxic cell death, CellTox Green | added: glutamate |  | IC50 | 84 nM |
| CCN(C(=O)c1cc(F)ccc1Oc1nncnc1N1CCC2(C1)CN([C@H](CCCN(C)CCOC)C(C)C)C2)C(C)C | MOLM-14 (KMT2A-AF9, FLT3-ITD) | cell growth, live-cell imaging, spheroid-like | 8 days |  | IC50 | 36 ± 95 nM |
| COc1cccc2c(C=NOCc3ccc(-c4nc5cc(-c6ccccc6)ccn5c4Nc4ccc(C(=O)O)cc4)cc3)ccc(N(C)C)c12 (mixture of isomers) | TDP1 | enzyme activity, inhibitor | 100 µM, unpurified compound |  | inhibition | 59.7% |
| O=C(C[Se]C(=O)c1ccc2ccccc2n1)Nc1cccc(C(F)(F)F)c1 | NCI60 leukaemia subpanel | NCI60 five-dose screen |  |  | mean TGI | 4570 nM |
| C1=[N+]2CCCC[N+]3=Cc4ccc5[n]4[Au-]23[n]2c1ccc2-c1nc2ccccc2nc1-5.F[P-](F)(F)(F)(F)F | HOP-62 | NCI60 five-dose screen |  |  | TGI | 5.23 -log M |
| O=C(C[Se]C(=O)c1cc2ccccc2[nH]1)Nc1cccc(C(F)(F)F)c1 | NCI60 melanoma subpanel | total growth inhibition, inhibitor | five-dose |  | mean TGI | 2870 nM |
| CCOC(=O)c1ccc(NC(=O)C(C#N)=C2C(=O)c3ccccc3C2=O)cc1 | HepG2 | cell growth or viability, MTT | 50 µM, 24 h |  | viability | 37.9% |
| O=C(C[Se]C(=O)c1ccc2ccccc2c1)Nc1cccc(C(F)(F)F)c1 | NCI60 melanoma subpanel | total growth inhibition, inhibitor | five-dose |  | mean TGI | 3340 nM |
| CCC(=CCc1c(O)cc2c(c1O)C(=O)CC(c1ccc(O)cc1)O2)CC (centres unmarked) | HeLa | cell growth or viability, MTT | 12.5 µM, 48 h |  | inhibition | 52.2% |
| O=C(C[Se]C(=O)c1cc2ccccc2s1)Nc1cccc(C(F)(F)F)c1 | NCI60 CNS subpanel | cell growth | 10 µM, 48 h, one-dose |  | mean growth percent | -87.5% |
| COc1ccc(NC(=O)c2ccc3[nH]c(-c4ccc(N(C)C)cc4)nc3c2)cn1 | HCEC-hTERT | IncuCyte | concentration not given, 4 h |  | dead cell to confluence ratio | 4.97 and 2.09 and 2.28 |

Excerpt of the above:
| SMILES | tested on | assay | setting | scale | measurement | value |
| --- | --- | --- | --- | --- | --- | --- |
| CC(=O)NCCCN(C)CCCNc1cccc2c1C(=O)c1cccc(NCCCN(C)CCCNC(C)=O)c1C2=O | SAS | RNA-Seq, item: FNDC8 mRNA | 1 µM, 24 h | relative to: untreated cells | log2 fold change | -2.5 |
| COc1cc(N(C)CCN(C)C)c(NC(=O)/C=C/c2ccc(C(C)(C)C)cc2)cc1Nc1nccc(-c2cn(C)c3ccccc23)n1 | NCI-H1975 | cell growth or viability, MTT | 0.5 µM, 72 h |  | inhibition | 67.3% |
| Cn1ncc2cc(-c3cncc(Cl)c3N3CCC4(CCNC4=O)CC3)ccc21 | LS174T | gene expression, microarray, item: MYL9 mRNA | concentration not given, 24 h | relative to: untreated cells | log2 fold change | 1.12 |
| COc1cc(N(C)CCN(C)C)c(NC(=O)/C=C/c2cccc(C(F)(F)F)c2)cc1Nc1nccc(-c2cn(C)c3ccccc23)n1 | NCI-H1975 | cell growth or viability, MTT | 0.5 µM, 72 h |  | inhibition | 69.8% |
| O=[C]=[Mn-2]12(=[C]=O)(=[C]=O)[O]c3cc4c(cc3=[N+]1CCc1ccccc1)[O][Mn-2](=[C]=O)(=[C]=O)(=[C]=O)([N+]=4CCc1ccccc1)[n+]1ccc(cc1)C(=O)OCCOC(=O)c1cc[n+]2cc1 | HCT-15 | MTT | 50 µM, 48 h, photolysed compound |  | viability reduction | 92% |
| CCCCCCCCCCCCCCCCCCOc1ccccc1CCOP(=O)([O-])OCC[N+](C)(C)C | HOP-92 | cell growth or viability, SRB | 10 µM |  | inhibition | 43% |
| Cc1cc(Cl)cc(-c2ccnc3cc(CN4C(=O)C5C(C4=O)C5(C)C)sc23)c1C[C@@H]1CNCCO1 (some centres unmarked) | CHP-212 parental (wild-type USP7) | PI flow cytometry | 0.3 µM, 24 h |  | cells in G1 phase | 70.4% and 68.6% and 64.1% |
